Assay results gathered from unrelated publications.
“And” joins repeats or separate records; there may be more than shown.

COc1ccc(Nc2cnnc3ccc(-c4cnc(N5CCN(C)CC5)nc4)cc23)cc1  phenotypic severity score (Schistosoma mansoni; adult worms; 10 µM, 1 h; direction not given): 0
CC(C)NCC(O)c1ccc(NS(C)(=O)=O)cc1 (centres unmarked)  inhibition (Nedd8-cullin1 interaction; neddylation, AlphaScreen; 100 µM): 32.2%
CC1=C(Cn2cc(CN)nn2)C(=O)c2ccccc2C1=O  killing (Schistosoma mansoni; adult worms; 10 µM, 24 h): 37%
COc1ccc(Nc2cnnc3cc(-c4ccc(N5CCN(C)CC5)cc4)ccc23)cc1  phenotypic severity score (Schistosoma mansoni; adult worms; 10 µM, 48 h; direction not given): 0
CC1=C(Cc2cn(Cc3ccccc3)nn2)C(=O)c2ccccc2C1=O  killing (Schistosoma mansoni; adult worms; 25 µM, 72 h): 58.8%
C[C@H](Oc1ccc(Br)cc1-c1ccon1)C(=O)O  difference from placebo (first response latency; human, tibialis anterior muscle; 400 mg, 15 Hz, single ascending dose): -0.295%
CCn1cc(-c2cc(Cn3ccoc3=N)cc3c2CCN([C@@H](C)c2cc(OC)ccn2)C3=O)c(C(F)(F)F)n1  EC50 (SUIT-2; cell growth, inhibitor; 120 h): 12.6 µM
O=C(O)C[C@H](O)C[C@H](O)/C=C/c1c(C2CC2)nc2ccccc2c1-c1ccc(F)cc1  inhibition (Nedd8-cullin1 interaction; neddylation, AlphaScreen; 100 µM): 0.5%
CC1=C(Cc2cn(CCO)nn2)C(=O)c2ccccc2C1=O  selectivity index (Schistosoma mansoni; NTS; reference: L6 CC50 over IC50): 12.2
COc1ccc(Nc2cnnc3ccc(-c4ccc(N5CCN(C)CC5)cc4)cc23)cc1  phenotypic severity score (Schistosoma mansoni; adult worms; 10 µM, 5 h; direction not given): 2
CCCCC(=O)N(Cc1ccc(-c2ccccc2-c2nnn[nH]2)cc1)[C@H](C(=O)O)C(C)C  inhibition (Nedd8-cullin1 interaction; neddylation, AlphaScreen; 100 µM): 83.4%
O=C(/C=C/C=C/C=C/C1CCCCC1)NC1=C[C@@](O)(/C=C/C=C/C=C/C(=O)NC2=C(O)CCC2=O)[C@@H]2O[C@@H]2C1=O  GI50 (NCI-H2122; cell growth, CellTiter-Glo; 78 h): 29.1 µM
CN1CCN(CCOc2cc(OC3CCOCC3)c3c(Nc4c(Cl)ccc5c4OCO5)ncnc3c2)CC1  IC50 (HD-MB03; 168 h): inactive
COc1cnc2cccc(N3CCc4c(cc(Cn5ccnc5C)cc4-c4cn(C)nc4C(F)(F)F)C3=O)c2c1  EC50 (HT115; cell growth, inhibitor; 120 h): 0.335 µM
CC1=C(Cn2cc(COC3COC3)nn2)C(=O)c2ccccc2C1=O  killing (Schistosoma mansoni; adult worms; 25 µM, 24 h): 47%
Cn1cc(-c2ccc(-c3cncc(Cl)c3N3CCC4(CCNC4=O)CC3)cc2)cn1  log2 fold change (COLO 205; gene expression, microarray, measured: AOC3 mRNA; concentration not given, 6 h; reference: untreated cells): 1.38
C[C@H]1c2cccc(O)c2C(=O)C2=C(O)[C@]3(O)C(=O)C(C(N)=O)=C(O)[C@@H](N(C)C)[C@@H]3[C@@H](O)[C@@H]21  minimum adult worm burden (Brugia malayi; SCID mouse; dose not given, 6 weeks post-treatment, dosing x42d): 0 worms per mouse
O=C(O)CNC(=O)Cc1ccccc1  sarcomere length (ventricular cardiomyocytes, C57BL/6 mouse; dose not given, 0.596 s): 1.66 µm
COc1ccc(Nc2cnnc3ccc(-c4cnc(N5CCCN(C)CC5)nc4)cc23)cc1  phenotypic severity score (Schistosoma mansoni; adult worms; 10 µM, 5 h; direction not given): 0
CCOC(=O)Nc1ccc2c(c1)N(C(=O)CCN1CCOCC1)c1ccccc1S2  inhibition (Nedd8-cullin1 interaction; neddylation, AlphaScreen; 100 µM): 41.6%
OC(CCN1CCCCC1)(c1ccccc1)C1CC2C=CC1C2 (centres unmarked)  EEG Alpha2-power Pz-O1 (resting-state EEG; healthy elderly humans; oral, 2 mg, eyes closed, LS mean): 4.8 µV²
CCn1cc(-c2cc(Cn3ccnc3)cc3c2CCN([C@H](c2cc(OC)ccn2)C2CC2)C3=O)c(C(F)(F)F)n1  EC50 (TE-5; cell growth, inhibitor; 120 h): > 30 µM
COc1cc(/C=C/C(=O)O)ccc1O  inhibition (Nedd8-cullin1 interaction; neddylation, AlphaScreen; 100 µM): 7.5%
COc1ccc(Nc2cnnc3cc(-c4ccc(S(=O)(=O)N5CCN(C)CC5)cc4)ccc23)cc1  phenotypic severity score (Schistosoma mansoni; adult worms; 10 µM, 5 h; direction not given): 0
CC(C)NCC(O)c1ccc(O)c(O)c1 (centres unmarked)  sarcomere length (ventricular cardiomyocytes, C57BL/6 mouse; dose not given, 0.3 s): 1.72 µm
CC(C)C[C@H](NC(=O)[C@H](Cc1ccccc1)NC(=O)c1cnccn1)B(O)O  IC50 (HD-MB03; cell growth; 168 h, single agent): 7.8 nM
[Ca+2]  desensitization time constant (human TRPA1 W1103A; ion current, two-electrode voltage clamp; Xenopus oocytes; +80 mV, added: AITC): 145 s and 155 s and 299 s and 217 s and 192 s
COc1ccc(Nc2cnnc3ccc(-c4ccc(N5CCN(C)CC5)cc4)cc23)cc1Cl  phenotypic severity score (Schistosoma mansoni; adult worms; 10 µM, 5 h; direction not given): 0
COc1cccc(OCCCN)c1-c1cc(Nc2cnc(C#N)cn2)n[nH]1  IC50 (HD-MB03; cell growth; 168 h, DMSO): 35.1 nM
N#Cc1ccn2c(-c3ccncc3)c(-c3ccc(F)cc3)nc2c1  log2 fold change (kinase binding, competitor, MIB/MS competition, measured: CEK1; Candida albicans cell lysate; 1 µM; reference: DMSO): 0.279
CC1=C(Cn2cc(CN3CCOCC3)nn2)C(=O)c2ccccc2C1=O  killing (Schistosoma mansoni; adult worms; 10 µM, 48 h): 44.4%
NC(=O)c1cnc2[nH]ccc2c1N[C@@H]1[C@@H]2CC3C[C@H]1C[C@@](O)(C3)C2  percent change (CD8+ memory T cells, flow cytometry; Japanese humans, peripheral blood; 200 mg single dose; reference: baseline): -0.25%
CN1CCCN(c2ncc(-c3ccc4nncc(Nc5cnccn5)c4c3)cn2)CC1  phenotypic severity score (Schistosoma mansoni; adult worms; 10 µM, 24 h; direction not given): 0
CC1=C(Cc2cn(CC#N)nn2)C(=O)c2ccccc2C1=O  killing (Schistosoma mansoni; adult worms; 10 µM, 24 h): 38%
O=C1[C@H](CC[C@H](O)c2ccc(F)cc2)[C@@H](c2ccc(O)cc2)N1c1ccc(F)cc1  inhibition (Nedd8-cullin1 interaction; neddylation, AlphaScreen; 100 µM): 13%
CC1=C(Cn2ccnn2)C(=O)c2ccccc2C1=O  killing (Schistosoma mansoni; adult worms; 10 µM, 72 h): 43.8%
CN1CCN(c2ccc(-c3ccc4nncc(Nc5ncccn5)c4c3)cc2)CC1  phenotypic severity score (Schistosoma mansoni; adult worms; 10 µM, 24 h; direction not given): 0
COc1cc2c(cc1OC)CC(=O)N(CCCN(C)C[C@H]1Cc3cc(OC)c(OC)cc31)CC2.Cl  inhibition (Nedd8-cullin1 interaction; neddylation, AlphaScreen; 100 µM): -12.2%
CC1=C(Cn2cc(CN3CCN(C(=O)OC(C)(C)C)CC3)nn2)C(=O)c2ccccc2C1=O  killing (Schistosoma mansoni; adult worms; 10 µM, 72 h): 46.2%
COC(=O)C1=C(C)NC(C)=C(C(=O)OC)C1c1ccccc1[N+](=O)[O-]  inhibition (Nedd8-cullin1 interaction; neddylation, AlphaScreen; 100 µM): 36.7%
Cc1csc(-c2nnc(Nc3ccc(Oc4ncccc4-c4ccnc(N)n4)cc3)c3ccccc23)c1  IC50 (HD-MB03; cell growth; 168 h, DMSO): 1.97 nM

Excerpt of the above:
CCOC(=O)Nc1ccc2c(c1)N(C(=O)CCN1CCOCC1)c1ccccc1S2  inhibition (Nedd8-cullin1 interaction; neddylation, AlphaScreen; 100 µM): 41.6%
OC(CCN1CCCCC1)(c1ccccc1)C1CC2C=CC1C2 (centres unmarked)  EEG Alpha2-power Pz-O1 (resting-state EEG; healthy elderly humans; oral, 2 mg, eyes closed, LS mean): 4.8 µV²
[Ca+2]  desensitization time constant (human TRPA1 W1103A; ion current, two-electrode voltage clamp; Xenopus oocytes; +80 mV, added: AITC): 145 s and 155 s and 299 s and 217 s and 192 s
CN1CCCN(c2ncc(-c3ccc4nncc(Nc5cnccn5)c4c3)cn2)CC1  phenotypic severity score (Schistosoma mansoni; adult worms; 10 µM, 24 h; direction not given): 0
O=C(O)C[C@H](O)C[C@H](O)/C=C/c1c(C2CC2)nc2ccccc2c1-c1ccc(F)cc1  inhibition (Nedd8-cullin1 interaction; neddylation, AlphaScreen; 100 µM): 0.5%
